Assay results from different studies.
Protocols differ between the studies behind these lines.
CSNK2A1: Casein kinase II subunit alpha (CSNK2A1, Homo sapiens, UniProt P68400)
Chain of UniProt P68400 (whole entry, looked up): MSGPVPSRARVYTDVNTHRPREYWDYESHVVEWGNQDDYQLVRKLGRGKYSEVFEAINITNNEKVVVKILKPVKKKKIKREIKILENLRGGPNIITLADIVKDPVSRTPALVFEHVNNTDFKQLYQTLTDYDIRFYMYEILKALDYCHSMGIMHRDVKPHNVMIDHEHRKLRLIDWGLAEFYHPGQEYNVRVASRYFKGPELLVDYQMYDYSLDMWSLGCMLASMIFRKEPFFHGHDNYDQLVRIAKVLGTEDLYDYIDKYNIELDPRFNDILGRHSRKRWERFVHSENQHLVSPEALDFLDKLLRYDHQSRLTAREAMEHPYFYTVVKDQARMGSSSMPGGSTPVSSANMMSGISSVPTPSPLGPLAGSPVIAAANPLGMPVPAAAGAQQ

The remaining activity of `O=C(NC1CCC1)c1ccc2nc(-c3cccc(NS(=O)(=O)NCCN4CCCCC4)c3)cn2c1` is reported as 64% (CSNK2A1; enzyme activity; 10 µM).
`C#Cc1cc(-c2cc(Nc3nc(N[C@@H](C)c4ccc(F)cn4)ncc3Cl)n[nH]2)ccc1C=O` has an inhibition of 57.3% (CSNK2A1; enzyme activity, inhibitor; 0.2 µM).
With `C=CC(=O)N1CCC(COCC(=O)N2CCN(c3nc(-c4cnc(N)nc4C(F)F)nc(N4CCOC[C@@H]4C)n3)CC2)CC1` the remaining binding was 92% (CSNK2A1; KINOMEscan; 1 µM).
With `CC/C(=N\NC(=O)NCc1cccc(O)c1)c1ccc(O)c(C)c1O` the inhibition was -4.2% (Casein kinase II subunit alpha, with CK2 beta (CSNK2A1, Homo sapiens, UniProt P68400); kinase activity; 0.1 µM).
The remaining activity of `COc1cc(F)ccc1-c1ncnc(Nc2cccc(C[S@](C)(=N)=O)c2)n1` is reported as 102% (CSNK2A1; kinase activity; 10 µM, together with: 10 µM ATP).
For `CNc1ncc2c(/C=C/C(=O)N3CCC(OC)CC3)nn(Cc3cccc(C(F)(F)F)c3)c2n1`, the remaining activity was 109% (CSNK2A1; kinase activity, inhibitor; 1 µM; reference: untreated control).
For `O=C1NC(=O)/C(=C/c2ccc(-c3ccc(F)cc3O)o2)S1`, the remaining activity was 25% (CSNK2A1; enzyme activity; 10 µM).
With `CN1CC(Oc2cnc(C#N)cc2-c2ccn3nc(NC(=O)C4CC4)cc3c2)C1` the inhibition was 6% (CSNK2A1; kinase activity; 1 µM, ATP15).
With `Cc1cc(Nc2cc(N3CCN(C)CC3)nc(Sc3ccc(NC(=O)C4CC4)cc3)n2)[nH]n1` the remaining activity was 99% (CSNK2A1; kinase activity, KinaseProfiler; 0.03 µM, species human; reference: control).
`COc1cc(Cl)c(C(=O)N[C@@H](CN[C@H]2CC[C@@H](N)CC2)Cc2ccc(C#N)cc2)cc1-c1ccc(CN[C@H](C)c2ccc(C)cc2)o1` gave a remaining activity of 102% (CSNK2A1; enzyme activity, KinaseProfiler panel; 1 µM).

Repeated from above:
With `CC/C(=N\NC(=O)NCc1cccc(O)c1)c1ccc(O)c(C)c1O` the inhibition was -4.2% (Casein kinase II subunit alpha, with CK2 beta (CSNK2A1, Homo sapiens, UniProt P68400); kinase activity; 0.1 µM).
